Measurements pooled from the literature.
Lines come from different studies, so protocols differ. ± gives the spread as reported.

CN[C@@](C)(C[18F])C(=O)O — tissue uptake (SCID mouse SK-OV-3 xenograft, blood; 120 min, post injection): 0.4 ± 0.1 %ID/g
CC(=O)N[C@H](CCCCNC(=O)C(C)F)C(=O)N[C@@H](CS)C(=O)N[C@@H](CS)C(=O)N[C@@H](CCC(=O)O)C(=O)N[C@@H](Cc1c[nH]cn1)C(=O)N[C@H](Cc1ccccc1)C(=O)N[C@@H](CCCNC(=N)N)C(=O)N[C@@H](Cc1c[nH]c2ccccc12)C(=O)N[C@@H](CS)C(=O)N[C@@H](CCCNC(=N)N)C(=O)N1CCC[C@H]1C(=O)N[C@H](C(N)=O)C(C)C (stereo partly shown) [fluorine-18 labelled] — tissue uptake (C57BL/6 mice, male, B16-F10 tumour, muscle; intravenous, 4 h): 0.06 ± 0.01 %ID/g
O=C(NCCS)c1cccc(C(=O)NCCS)c1 — plasma concentration (rat Sprague-Dawley male; intravenous, 1 mg/kg, 6 h): 39.4 ng/mL
CSCC[C@@H]1NC(=O)[C@H](CC(=O)O)NC(=O)CNC(=O)[C@H](CCCNC(=N)N)NC(=O)[C@H](C)NC(=O)[C@H](CCC(=O)O)NC(=O)[C@H](CCCNC(=N)N)NC(=O)[C@@H]2CSSC[C@@H]3NC(=O)[C@H](CO)NC(=O)[C@H]([C@@H](C)O)NC(=O)[C@@H]4CCCN4C(=O)[C@H](C)NC(=O)[C@H](Cc4c[nH]c5ccccc45)NC(=O)[C@H](CC(=O)O)NC(=O)CNC(=O)[C@H](CCCNC(=N)N)NC(=O)CNC(=O)[C@H](CCC(N)=O)NC(=O)[C@@H]4CCCN4C(=O)[C@@H](NC(=O)CNC(=O)C(C)F)CSSC[C@H](NC(=O)CNC(=O)[C@H](C)NC(=O)[C@H](CC(C)C)NC(=O)[C@H](CSSC[C@@H](C(=O)NCC(N)=O)NC(=O)[C@H]([C@@H](C)O)NC(=O)[C@H](CCCNC(=N)N)NC(=O)[C@@H]4CCCN4C1=O)NC(=O)[C@H](CC(=O)O)NC(=O)[C@H](CO)NC(=O)[C@H](CC(=O)O)NC(=O)[C@H](CCC(N)=O)NC(=O)[C@H](CO)NC3=O)C(=O)N[C@@H](C(C)C)C(=O)N2 (stereo partly shown) [fluorine-18 labelled] — tissue uptake (nude mice U-87 MG xenograft, kidneys; intravenous, 1 h): 3.02 ± 0.33 %ID/g
CC1N=C(c2ccccc2F)c2cc(N3CCOCC3)ccc2NC1=O (stereo not shown) — solubility (shake flask; PBS; 24 h, pH 7.4): > 100 µM
CC[C@H](C)[C@H](NC(=O)[C@H](Cc1ccccc1)NC(=O)[C@H](CCC(=O)O)NC(=O)[C@H](CCCCNC(=O)COCCOCCNC(=O)COCCOCCNC(=O)CC[C@H](NC(=O)CCCCCCCCCCCCCCCCC(=O)O)C(=O)O)NC(=O)[C@H](C)NC(=O)[C@H](C)NC(=O)[C@H](CCC(N)=O)NC(=O)CNC(=O)[C@H](CCC(=O)O)NC(=O)[C@H](CC(C)C)NC(=O)[C@H](Cc1ccc(O)cc1)NC(=O)[C@H](CO)NC(=O)[C@H](CO)NC(=O)[C@@H](NC(=O)[C@H](CC(=O)O)NC(=O)[C@H](CO)NC(=O)[C@@H](NC(=O)[C@H](Cc1ccccc1)NC(=O)[C@@H](NC(=O)CNC(=O)[C@H](CCC(=O)O)NC(=O)C(C)(C)NC(=O)[C@@H](N)Cc1cnc[nH]1)[C@@H](C)O)[C@@H](C)O)C(C)C)C(=O)N[C@@H](C)C(=O)N[C@@H](Cc1c[nH]c2ccccc12)C(=O)N[C@@H](CC(C)C)C(=O)N[C@H](C(=O)N[C@@H](CCCNC(=N)N)C(=O)NCC(=O)N[C@@H](CCCNC(=N)N)C(=O)NCC(=O)O)C(C)C — renal and liver toxicity (measured: SCr, BUN, AST, ALT; Kunming mice; subcutaneous, 100 nmol/kg once daily, 14 days; relative to: saline): no effect
CS(=O)(=O)CCCn1c(Cn2c(=O)n(CC(F)(F)F)c3ccncc32)cc2cc(Cl)ccc21 — patients with high aPTT (RSV-infected infants; concentration not given, low dose cohorts): 25%
eremomycin — inflammation reaction index (pseudoallergic reaction; male CBA mouse; intravenous, maximum tolerated dose, added: concanavalin A; relative to: control group): 42.7%
[123I]c1cncc(OC[C@@H]2CCN2)c1 — tissue/plasma ratio (SPECT; human, pons; intravenous bolus, 2.1 mCi; relative to: plasma): 16.7
Nc1ccncc1[18F] — SUV (isoflurane-anaesthetised mice, brain; intravenous, 35 min): 1.14 ± 0.14

Excerpt of the above:
CC[C@H](C)[C@H](NC(=O)[C@H](Cc1ccccc1)NC(=O)[C@H](CCC(=O)O)NC(=O)[C@H](CCCCNC(=O)COCCOCCNC(=O)COCCOCCNC(=O)CC[C@H](NC(=O)CCCCCCCCCCCCCCCCC(=O)O)C(=O)O)NC(=O)[C@H](C)NC(=O)[C@H](C)NC(=O)[C@H](CCC(N)=O)NC(=O)CNC(=O)[C@H](CCC(=O)O)NC(=O)[C@H](CC(C)C)NC(=O)[C@H](Cc1ccc(O)cc1)NC(=O)[C@H](CO)NC(=O)[C@H](CO)NC(=O)[C@@H](NC(=O)[C@H](CC(=O)O)NC(=O)[C@H](CO)NC(=O)[C@@H](NC(=O)[C@H](Cc1ccccc1)NC(=O)[C@@H](NC(=O)CNC(=O)[C@H](CCC(=O)O)NC(=O)C(C)(C)NC(=O)[C@@H](N)Cc1cnc[nH]1)[C@@H](C)O)[C@@H](C)O)C(C)C)C(=O)N[C@@H](C)C(=O)N[C@@H](Cc1c[nH]c2ccccc12)C(=O)N[C@@H](CC(C)C)C(=O)N[C@H](C(=O)N[C@@H](CCCNC(=N)N)C(=O)NCC(=O)N[C@@H](CCCNC(=N)N)C(=O)NCC(=O)O)C(C)C — renal and liver toxicity (measured: SCr, BUN, AST, ALT; Kunming mice; subcutaneous, 100 nmol/kg once daily, 14 days; relative to: saline): no effect
Nc1ccncc1[18F] — SUV (isoflurane-anaesthetised mice, brain; intravenous, 35 min): 1.14 ± 0.14
